Experimental data of several laboratories.
Parts stem from different laboratories: compare values within a part only. Substitutions count along the parent as printed.

Sample 1 — technique: protein-binding microarray; molecule type: double-stranded DNA, one strand shown; matrix: in vitro; tested at: 0.8 µM; setting: whole 60-bp probe, no competitor; direction: higher = stronger binding
Target: Centromere-binding protein 1, full length, N-terminal tag (CBF1, Saccharomyces cerevisiae, UniProt P17106, residues 1-351)
Chain of UniProt P17106 (whole entry, looked up): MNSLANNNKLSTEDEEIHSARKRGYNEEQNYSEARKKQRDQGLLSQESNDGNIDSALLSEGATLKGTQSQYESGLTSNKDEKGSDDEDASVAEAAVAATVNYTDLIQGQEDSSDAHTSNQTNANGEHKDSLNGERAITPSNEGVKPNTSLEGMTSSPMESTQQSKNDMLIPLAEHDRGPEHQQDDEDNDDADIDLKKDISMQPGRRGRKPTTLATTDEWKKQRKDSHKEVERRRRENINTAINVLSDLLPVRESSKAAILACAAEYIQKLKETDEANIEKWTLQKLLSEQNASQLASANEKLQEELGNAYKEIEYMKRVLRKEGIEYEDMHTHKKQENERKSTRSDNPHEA
`CTACATTAGAACGCTGATCAGCTGTGTATAGTTTTCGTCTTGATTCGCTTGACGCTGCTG` has a fluorescence intensity of 667 a.u.
`CTACATATGATTCACGTGAAAATTTTTATATTTTTCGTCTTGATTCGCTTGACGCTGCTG` gave a fluorescence intensity of 3850 a.u.
With `GAATCAGTGGATTCTGATGTAATTGTTGGGATTTAGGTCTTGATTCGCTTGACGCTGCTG` the fluorescence intensity was 501 a.u.
`GAACTCTTTACCACTCAGCTGACTTTATTATTTTAGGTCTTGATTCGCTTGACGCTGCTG` has a fluorescence intensity of 1380 a.u.
For `CTACTACACGTTGGTCTGATGTCTCAGGAGTTATTCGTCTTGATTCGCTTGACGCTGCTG`, the fluorescence intensity was 540 a.u.
`CTATGTCATTGTTTTTGCACCACCTTGTTACATTTCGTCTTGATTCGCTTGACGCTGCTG` gave a fluorescence intensity of 576 a.u.
The fluorescence intensity of `CTAAGACACTGAAGTCAGCTGTTTGAAAGAGTATTCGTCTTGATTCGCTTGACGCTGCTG` is reported as 743 a.u.
With `GAAGTGGCGAATGATCACGATAGAAACTGCCCTTAGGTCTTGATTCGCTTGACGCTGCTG` the fluorescence intensity was 623 a.u.
For `GAAAGTAATACCTGTGCCATGTGATAGCCATATTAGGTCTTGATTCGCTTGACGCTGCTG`, the fluorescence intensity was 2000 a.u.
The fluorescence intensity of `TGTACGAAGCTATATCACATATATATAGTAGTTAGGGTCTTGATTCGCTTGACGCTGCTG` is reported as 550 a.u.
With `GAATCGATAGAATGTGACGTTAGTTGTGGTACTTAGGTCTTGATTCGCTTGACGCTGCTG` the fluorescence intensity was 579 a.u.
`GAAGAGAGTACTCATCATCACACTATAAGCTTTTAGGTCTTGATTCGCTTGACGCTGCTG` has a fluorescence intensity of 519 a.u.

Sample 2 — target: CCNF, cyclin fold, Cln2 fusion (human); technique: yeast growth competition, sequencing; matrix: yeast; setting: strong parent motif; reference: not given; direction: higher = stronger binding
Parent: E2F1 docking peptide (human); PPVKRRLDLETDH; partner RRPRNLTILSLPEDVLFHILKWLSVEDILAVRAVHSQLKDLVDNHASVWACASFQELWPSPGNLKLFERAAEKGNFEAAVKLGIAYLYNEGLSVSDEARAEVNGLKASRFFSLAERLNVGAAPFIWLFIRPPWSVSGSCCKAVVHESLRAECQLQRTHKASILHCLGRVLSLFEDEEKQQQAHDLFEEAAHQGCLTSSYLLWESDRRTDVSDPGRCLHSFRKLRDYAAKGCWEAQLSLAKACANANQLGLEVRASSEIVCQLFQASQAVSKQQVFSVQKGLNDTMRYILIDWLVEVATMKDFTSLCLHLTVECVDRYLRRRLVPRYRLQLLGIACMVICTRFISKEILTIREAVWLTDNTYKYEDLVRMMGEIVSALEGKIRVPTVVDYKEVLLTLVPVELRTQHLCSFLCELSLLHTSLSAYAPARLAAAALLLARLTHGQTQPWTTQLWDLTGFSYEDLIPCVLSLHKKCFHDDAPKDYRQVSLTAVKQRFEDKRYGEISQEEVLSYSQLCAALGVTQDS
Under “normalised enrichment score”, `PYVKRRLDLETDH [P2Y]` is recorded as 5.16.
Under “normalised enrichment score”, `PPVKDRLDLETDH [R5D]` is recorded as -0.605.
Under “normalised enrichment score”, `KPVKRRLDLETDH [P1K]` is recorded as 6.94.
Under “normalised enrichment score”, `PPVKRRLELETDH [D8E]` is recorded as 5.36.
`PPVKRRLDLGTDH [E10G]` — result for “normalised enrichment score”: 7.36.
Under “normalised enrichment score”, `PPVKRRWDLETDH [L7W]` is recorded as 0.578.
For `PPVKRRLDLPTDH [E10P]`, “normalised enrichment score” read 4.13.
Under “normalised enrichment score”, `PPVKARADLETDH [R5A L7A]` is recorded as -0.238.

Sample 3 — technique: protein-binding microarray; molecule type: double-stranded DNA, one strand shown; matrix: in vitro; tested at: 2200 nM top; setting: 60-bp whole probe; added: salmon DNA 0.4 mg/ml; reference: random background probes; direction: higher = stronger binding; all sequences stand within: GCCTAGCAC … GTCTTGATTCGCTTGACGCTGCTG
Target: Interferon regulatory factor 7, full length, phosphomimetic (IRF7, Homo sapiens, UniProt Q92985, residues 1-503, S471D/S472D/S475D/S476D/S477D/S483D/S484D/S487D)
Chain of UniProt Q92985 (whole entry, unmodified, looked up): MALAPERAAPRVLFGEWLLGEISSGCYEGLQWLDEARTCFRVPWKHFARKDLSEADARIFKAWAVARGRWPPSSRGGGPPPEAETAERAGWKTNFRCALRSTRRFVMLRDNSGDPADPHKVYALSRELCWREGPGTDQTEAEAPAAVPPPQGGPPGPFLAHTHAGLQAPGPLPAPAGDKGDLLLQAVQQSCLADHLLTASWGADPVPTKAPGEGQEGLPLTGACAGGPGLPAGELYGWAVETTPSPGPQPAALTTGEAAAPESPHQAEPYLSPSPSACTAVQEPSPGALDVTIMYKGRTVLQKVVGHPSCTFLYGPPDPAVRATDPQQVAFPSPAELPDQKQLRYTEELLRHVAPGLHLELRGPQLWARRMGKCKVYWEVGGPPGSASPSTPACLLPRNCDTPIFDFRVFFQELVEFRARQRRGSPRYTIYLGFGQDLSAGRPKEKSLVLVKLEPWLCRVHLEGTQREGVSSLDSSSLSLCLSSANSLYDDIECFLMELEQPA
Under “fitted relative affinity”, `TTAGGCATCCTACTGCTTTAGTGCTAG` is recorded as 0.108 z-score.
`GACGGTCTCGGAGTGGGGACGTGCTAG`: “fitted relative affinity” -0.841 z-score.
For `GACGATTTCAGATTCGAGACGTGCTAG`, “fitted relative affinity” read 1.8 z-score.
Under “fitted relative affinity”, `CTTTTTTTCTTTTATTAGTGGTGCTAG` is recorded as 3.36 z-score.
`TATTGTGCAATTAGAGCCCTGTGCTAG`: “fitted relative affinity” -0.113 z-score.
Under “fitted relative affinity”, `GACGCACTGGGTCTCGGGACGTGCTAG` is recorded as -0.501 z-score.
For `TTAGATTTCGGGACAGGATTAGTGCTA`, “fitted relative affinity” read 1.08 z-score.
For `TCAACATTGCACAATCTTACTGTGCTA`, “fitted relative affinity” read 0.493 z-score.
For `CTCTCCATGTGTTTAAAGACGTGCTAG`, “fitted relative affinity” read 1.13 z-score.
`TTAGGTCTCGGACGGGGTTAGTGCTAG` — result for “fitted relative affinity”: -0.24 z-score.
Under “fitted relative affinity”, `TCATATCTCTGTTTTTGACTGTGCTAG` is recorded as 1.85 z-score.
For `CAGGAATTGAAAATTAGTGTTGTGCTA`, “fitted relative affinity” read -0.47 z-score.
Under “fitted relative affinity”, `TTAGGTTTCGACTATCAGTTAGTGCTA` is recorded as 2.71 z-score.
`GACGGACTGCTTTCCCTGACGTGCTAG` — result for “fitted relative affinity”: 0.764 z-score.
For `TCATCTTTTATTTTTTTACTGTGCTAG`, “fitted relative affinity” read 1.28 z-score.

Other studies, line by line
`PhoQ, residues 284 288 289 292 302 303 TLASMF` has a fold induction of 4.89 (PhoP, residues 12 14 15 18 19 AQALL (Escherichia coli, UniProt P23836); Sort-seq, measured: YFP reporter; E. coli; PhoQ-PhoP variant library, added: 10 µM Mg2+; reference: high Mg2+ state, higher = stronger signaling).

A few entries again (sample 1):
`GAACTCTTTACCACTCAGCTGACTTTATTATTTTAGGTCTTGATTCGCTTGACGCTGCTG` has a fluorescence intensity of 1380 a.u.
For `CTACTACACGTTGGTCTGATGTCTCAGGAGTTATTCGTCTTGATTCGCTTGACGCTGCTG`, the fluorescence intensity was 540 a.u.
`CTATGTCATTGTTTTTGCACCACCTTGTTACATTTCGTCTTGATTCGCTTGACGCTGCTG` gave a fluorescence intensity of 576 a.u.
